Published values gathered from unrelated publications.
Every numbered part comes from another study and shows a few of its results, in no order. Substitutions count along the parent as printed.
UniProt O15294, sequence (whole entry, looked up): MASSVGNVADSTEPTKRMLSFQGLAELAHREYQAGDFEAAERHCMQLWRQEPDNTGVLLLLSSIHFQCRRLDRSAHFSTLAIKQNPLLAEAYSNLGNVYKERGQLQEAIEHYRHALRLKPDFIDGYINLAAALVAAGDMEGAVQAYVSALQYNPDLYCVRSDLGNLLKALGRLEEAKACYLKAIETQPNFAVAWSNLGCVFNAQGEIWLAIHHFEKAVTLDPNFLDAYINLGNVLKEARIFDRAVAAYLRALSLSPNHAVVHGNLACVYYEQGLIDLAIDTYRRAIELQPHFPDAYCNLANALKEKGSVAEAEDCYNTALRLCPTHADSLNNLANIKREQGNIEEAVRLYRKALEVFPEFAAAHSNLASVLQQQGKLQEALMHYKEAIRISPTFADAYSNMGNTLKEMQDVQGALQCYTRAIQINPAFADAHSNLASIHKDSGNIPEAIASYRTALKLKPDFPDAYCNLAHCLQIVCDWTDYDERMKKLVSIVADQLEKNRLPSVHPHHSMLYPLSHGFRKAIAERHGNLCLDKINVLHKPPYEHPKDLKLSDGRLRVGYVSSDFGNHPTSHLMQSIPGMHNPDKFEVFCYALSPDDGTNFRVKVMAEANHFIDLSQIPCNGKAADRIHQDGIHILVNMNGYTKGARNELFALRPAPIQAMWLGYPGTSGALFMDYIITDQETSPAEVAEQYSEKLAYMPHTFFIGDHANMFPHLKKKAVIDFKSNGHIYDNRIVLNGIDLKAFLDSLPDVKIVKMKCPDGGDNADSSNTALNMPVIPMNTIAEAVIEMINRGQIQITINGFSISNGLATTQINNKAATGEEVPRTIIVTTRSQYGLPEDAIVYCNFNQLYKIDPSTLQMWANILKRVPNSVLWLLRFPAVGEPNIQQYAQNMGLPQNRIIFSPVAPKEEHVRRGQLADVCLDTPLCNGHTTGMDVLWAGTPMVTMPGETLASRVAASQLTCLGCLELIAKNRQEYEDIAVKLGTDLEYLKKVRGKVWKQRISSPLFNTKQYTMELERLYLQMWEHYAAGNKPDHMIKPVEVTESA

Series 1 — target: tungstate, free oxyanion; method: microfluidic competitive inhibition; matrix: in vitro, cell-free expressed; tested at: not given; direction: lower = stronger binding; endpoint: oxyanion analog dissociation constant
Notes: derived from inhibition constants, unchanged parent 2230 nM
Parent: PafA, mature enzyme, eGFP fusion (Elizabethkingia meningoseptica, UniProt Q9KJX5); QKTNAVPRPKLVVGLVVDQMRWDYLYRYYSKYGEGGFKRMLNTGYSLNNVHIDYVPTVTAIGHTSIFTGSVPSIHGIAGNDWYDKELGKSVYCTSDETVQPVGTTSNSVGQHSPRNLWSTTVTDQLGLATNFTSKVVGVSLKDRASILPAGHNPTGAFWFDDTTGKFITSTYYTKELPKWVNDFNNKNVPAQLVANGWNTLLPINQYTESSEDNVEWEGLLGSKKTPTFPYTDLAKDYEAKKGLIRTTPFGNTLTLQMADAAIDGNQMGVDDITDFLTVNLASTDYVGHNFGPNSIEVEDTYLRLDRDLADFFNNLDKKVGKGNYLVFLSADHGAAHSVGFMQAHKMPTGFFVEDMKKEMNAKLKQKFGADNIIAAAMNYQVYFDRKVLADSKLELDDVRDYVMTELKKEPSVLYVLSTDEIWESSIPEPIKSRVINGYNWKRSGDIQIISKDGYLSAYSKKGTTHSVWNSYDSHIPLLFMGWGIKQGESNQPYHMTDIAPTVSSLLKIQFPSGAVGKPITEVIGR
Substitution = L281V; value = 4.27 µM
Substitution = Y32V; value = 3.22 µM
Substitution = D311G; value = 2.05 µM

Series 2 — method: competition protein-binding microarray; form: double-stranded DNA, one strand shown; matrix: in vitro; tested at: 2 µM; together with: Pho4 competitor, 0.05 µM; direction: higher = stronger binding; endpoint: fluorescence intensity; constant ends, left off below: … GTCTTGATTCGCTTGACGCTGCTG
Target: Centromere-binding protein 1, full length, His-tagged (CBF1, Saccharomyces cerevisiae, UniProt P17106, residues 1-351)
UniProt P17106, sequence (whole entry, looked up): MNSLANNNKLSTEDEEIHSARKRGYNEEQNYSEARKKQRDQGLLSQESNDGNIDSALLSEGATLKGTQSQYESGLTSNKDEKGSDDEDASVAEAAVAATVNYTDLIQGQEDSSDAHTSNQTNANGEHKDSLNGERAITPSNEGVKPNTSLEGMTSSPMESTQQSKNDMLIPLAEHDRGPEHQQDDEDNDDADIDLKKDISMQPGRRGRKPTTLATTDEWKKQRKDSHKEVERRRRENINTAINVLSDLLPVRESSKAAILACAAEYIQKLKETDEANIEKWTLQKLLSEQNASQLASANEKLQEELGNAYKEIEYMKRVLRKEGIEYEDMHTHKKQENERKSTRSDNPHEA
Notes: whole 60-bp probe, lowest competitor level
Strand = AAATTACTAAGTTGTCACAGCACTTACCCCGTATGA; value = 67.2 a.u.
Strand = CGGGGTTAAGTTTGAACCGTGGGTGGCTTGCAGCAG; value = 56.6 a.u.
Strand = CGGGGTTAAGTTTGGTGAGTGGGTGGCTTGCAGCAG; value = 57.7 a.u.
Strand = TGGACCATCCAAGTACTCGTGAAGATCCGAGCCACA; value = 67.7 a.u.
Strand = TGCGCAACAACTTGTCACACTACTTTATGTCTAGAA; value = 105 a.u.
Strand = CGTAACGTTCTGCTCATCGTGACGGTGGGAGAGCCA; value = 72.8 a.u.
Strand = AAGCTGAAGTATGGTGTCGTGACTCGGATTTCCGCT; value = 654 a.u.
Strand = AGAAATTTTGGCCGCCATGTGGTCTTCTACAATTAT; value = 110 a.u.

Series 3 — method: protein-binding microarray; form: double-stranded DNA, one strand shown; matrix: in vitro; tested at: not given; direction: higher = stronger binding; endpoint: E-score
Target: Max-binding protein MNT, bHLH-zipper, MAX partner unstated (MNT, Homo sapiens, UniProt Q99583, residues 220-300)
Notes: k-mer, scored over probes, only values ≥0.25
Target sequence (chain): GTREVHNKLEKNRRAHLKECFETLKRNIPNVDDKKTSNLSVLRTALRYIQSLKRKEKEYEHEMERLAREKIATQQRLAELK
Strand = ACGTTGTC; value = 0.372
Strand = GCCCCACA; value = 0.324
Strand = CCTCGAGG; value = 0.353
Strand = AATCATGT; value = 0.325
Strand = CATCCCCA; value = 0.252
Strand = CGTGCTCA; value = 0.418
Strand = ACGCGCAG; value = 0.254
Strand = ACGCGTAG; value = 0.258

Series 4 — target: CCNF, cyclin fold, Cln2 fusion (human); method: yeast growth competition, sequencing; matrix: yeast; notes: strong parent motif; reference: not given; direction: higher = stronger binding; endpoint: normalised enrichment score; parent: viral docking peptide; KGVKRKLFAEDSS
Substitution = D11P; value = 8.14
Substitution = F8L; value = 2.09
Substitution = D11M; value = 8.02
Substitution = E10K; value = 6.63
Substitution = K4L; value = 4.13
Substitution = R5P; value = 0.384
Substitution = D11R; value = 7.59
Substitution = E10L; value = 7.71
Substitution = S12V; value = 8.15
Substitution = E10R; value = 6.79
Substitution = S12I; value = 8.27
Substitution = F8R; value = 0.783
Substitution = L7D; value = 0.289
Substitution = E10C; value = 7.83
Substitution = K4D; value = 4
Substitution = E10S; value = 7.42
Substitution = L7Q; value = 0.271

Other studies, line by line
Molecule = SIPEVFFAPVYQIET; target = UDP-N-acetylglucosamine--peptide N-acetylglucosaminyltransferase 110 kDa subunit (OGT, Homo sapiens, UniProt O15294); assay = binding, phage display NGS; system = peptide; setting = concentration not given, normalized abundance; how to read = reference: input library; endpoint = enrichment fold change; value = 8.43

For quick reference, copied from above (series 3):
Strand = GCCCCACA; value = 0.324
Strand = CATCCCCA; value = 0.252
Strand = CGTGCTCA; value = 0.418
Strand = ACGCGCAG; value = 0.254
Strand = ACGCGTAG; value = 0.258
